Measurements collected from several papers.
Parts stem from different laboratories: compare values within a part only.

Block 1
Target: Histone acetyltransferase KAT6A, both winged helices, GST fusion (KAT6A, Homo sapiens, UniProt Q92794, residues 1-181)
Method: protein binding microarray
Molecule type: double-stranded DNA, one strand shown
Matrix: in vitro
Tested at: not given
Setting: 8-mer, flanks averaged, mean of 2 arrays, mostly near background
Reference: not given
Direction: higher = stronger binding
Measurement: E-score
Target sequence (chain): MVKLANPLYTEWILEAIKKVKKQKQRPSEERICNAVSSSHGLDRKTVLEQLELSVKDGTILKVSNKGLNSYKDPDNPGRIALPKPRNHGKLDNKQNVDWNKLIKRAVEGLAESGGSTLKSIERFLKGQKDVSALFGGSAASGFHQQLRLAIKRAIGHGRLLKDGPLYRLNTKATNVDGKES
Oligonucleotide = CTAACGCA; result = 0.123
Oligonucleotide = AGGTGTTA; result = -0.239
Oligonucleotide = ATATACAA; result = 0.0454
Oligonucleotide = GTGTAAGA; result = -0.124
Oligonucleotide = ATGCCCAC; result = -0.201
Oligonucleotide = ACATAACT; result = -0.0831
Oligonucleotide = TAGGCATA; result = -0.0716
Oligonucleotide = ATCGACCG; result = 0.17
Oligonucleotide = AAGGTGCA; result = -0.129
Oligonucleotide = ACCCTTTC; result = -0.0346
Oligonucleotide = ACGGCGTC; result = 0.319
Oligonucleotide = ATGCGCCC; result = 0.253
Oligonucleotide = AGCCATAA; result = -0.0225
Oligonucleotide = GGATCAGA; result = -0.174
Oligonucleotide = CCCAGGAC; result = -0.0909
Oligonucleotide = TGCGACAA; result = 0.00417
Oligonucleotide = CCTTGTCA; result = -0.031
Oligonucleotide = GTATATAA; result = -0.091
Oligonucleotide = ACTCGACG; result = 0.105

Block 2
Target: RNA binding protein fox-1 homolog 2, RRM domain, GST-SBP tag (RBFOX2, Homo sapiens, UniProt O43251-10, residues 100-194)
Method: RNA Bind-n-Seq
Molecule type: RNA
Matrix: in vitro
Tested at: 365 nM
Setting: natural RNA segment, single round, ends assumed
Reference: no-protein control
Direction: higher = stronger binding
Measurement: RBNS enrichment (R)
Target sequence (chain): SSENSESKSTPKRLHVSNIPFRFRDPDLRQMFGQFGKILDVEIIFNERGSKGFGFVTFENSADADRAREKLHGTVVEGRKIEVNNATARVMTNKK
Oligonucleotide = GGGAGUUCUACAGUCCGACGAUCAACCUUCUGGCACACCUUGUACAGAGUUUUGGGGUUCACACCCCAAAAUGACCCAACGAUGUCCACACACCACCAAAACCCAGCCAAUGGGCCACCUCUUCCUCCAAGCCUGGAAUUCUCGGGUGCCAA; result = 0.377
Oligonucleotide = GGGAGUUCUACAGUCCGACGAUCACGUGCUUUUAGCAGUUGGCUGGAAUGUGUUCACUAGGUUCCGUUAUGUUUGGUAAUAUCAUCUUGAAAAGUCCCUGUAAUAGAUCAAGGAGACUGCAUUCCCUGCCCUGUGGAAUUCUCGGGUGCCAA; result = 0.438
Oligonucleotide = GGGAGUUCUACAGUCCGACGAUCACCAGACUUUUAGGGAGACUGGACAAACAUCAGGACUGGCUUUUAUAAGUAGGCAGGUAAUCUUCAUGGGGACUGAGGUGAUUUUCUUGUACGUUUUACGUUUUCCUAUUUGGAAUUCUCGGGUGCCAA; result = 0.68
Oligonucleotide = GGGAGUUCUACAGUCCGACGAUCUGGCAAAAAGCAAUGCCAGUAAUUAAUAACAUUUGGAAAAGCUUUAUAGAGACUCUAAGUCUAAAUUUUAAUUUCUUUGUAAAAACCUCAAAAGUGAGGAAAAUGGAUGUUGGAAUUCUCGGGUGCCAA; result = 0.456
Oligonucleotide = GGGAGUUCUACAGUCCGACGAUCUCAGAUGCAGGUGGUACCCACACGACCAGAGUGAUCAAUAGGAAUUUUCUUGGUGUUCCUUUCUUCCAGCACAGUGCAAGAUAGAGUUGCUGUUGAUGCCAUAUGUUUAGUGGAAUUCUCGGGUGCCAA; result = 0.914
Oligonucleotide = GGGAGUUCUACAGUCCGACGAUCUUUGUAUAGCUUCAAGAACUUUAUACCUGUACAGCUCUAACAUGACACUGCUCCACUCAGUAUUCAUCCUGUUGACGCACACAGGUGAGCACUUUCCUAACUACUGCAGAUGGAAUUCUCGGGUGCCAA; result = 0.688
Oligonucleotide = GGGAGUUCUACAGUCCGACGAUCGAUCAUUUAAGUAAUAGUUAGUAAUCACGUAAAUACACCCGGACAGAAAUAUAAUGUCUGGAUCUACUUCAUUCUUACAUCAACAUUCACUUUAAAAUCUAUCGAAGCUCUGGAAUUCUCGGGUGCCAA; result = 0.289
Oligonucleotide = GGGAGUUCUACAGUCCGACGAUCGUGCGCUGGGCAGGAGGAAGGCAUGUGCUUCCUCCCCAGCCACCACCCCUCCCACAGCACCCAGCCUCACUACCCCAGCAUGGGGUACCCAGCUGGAUACUCCCAAAAUGUGGAAUUCUCGGGUGCCAA; result = 9.92

Block 3
Target: Interferon regulatory factor 7, full length, phosphomimetic (IRF7, Homo sapiens, UniProt Q92985, residues 1-503, S101K/S471D/S472D/S475D/S476D/S477D/S483D/S484D/S487D)
Method: protein-binding microarray
Molecule type: double-stranded DNA, one strand shown
Matrix: in vitro
Tested at: 250 nM
Setting: 60-bp whole probe
Added: salmon DNA 0.4 mg/ml
Reference: random background probes
Direction: higher = stronger binding
Measurement: log fluorescence
Shared flanks, not repeated: GCCTAGCAC … GTCTTGATTCGCTTGACGCTGCTG
Construct (chain): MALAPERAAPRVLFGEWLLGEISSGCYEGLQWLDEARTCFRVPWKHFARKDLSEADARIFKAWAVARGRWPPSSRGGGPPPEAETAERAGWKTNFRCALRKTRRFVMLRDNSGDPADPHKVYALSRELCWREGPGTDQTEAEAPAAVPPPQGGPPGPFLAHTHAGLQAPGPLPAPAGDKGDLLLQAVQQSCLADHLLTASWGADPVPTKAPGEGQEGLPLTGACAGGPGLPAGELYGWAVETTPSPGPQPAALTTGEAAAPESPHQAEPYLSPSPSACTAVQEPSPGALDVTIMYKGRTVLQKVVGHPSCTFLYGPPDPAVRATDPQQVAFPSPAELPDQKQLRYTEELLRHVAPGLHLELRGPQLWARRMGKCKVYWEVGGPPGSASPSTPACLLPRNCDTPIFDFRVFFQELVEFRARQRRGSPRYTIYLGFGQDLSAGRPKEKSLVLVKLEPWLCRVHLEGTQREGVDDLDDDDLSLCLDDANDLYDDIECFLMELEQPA
Oligonucleotide = AGATTTTTATCAAATGTGGGAGTGCTA; result = -0.376 z-score
Oligonucleotide = GACGACCTGAGTATCGAGACGTGCTAG; result = 0.064 z-score
Oligonucleotide = TGTGGGCGTAGGCCCGGAGCGTGCTAG; result = -1.25 z-score
Oligonucleotide = GAGCTCCTCCTTCTCTAACCGTGCTAG; result = -0.113 z-score
Oligonucleotide = CTAAATATCTTTGTTGAAAAGTGCTAG; result = 0.659 z-score
Oligonucleotide = TTAGTTCTCCTTATCCTTTAGTGCTAG; result = 1.09 z-score
Oligonucleotide = TTAGGTTTCGTGTTTCGGTTAGTGCTA; result = 11.4 z-score
Oligonucleotide = GACTGACTGGGACTGGGGACGTGCTAG; result = -0.363 z-score
Oligonucleotide = GACGAACTGAGAGTGGAGACGTGCTAG; result = -0.509 z-score
Oligonucleotide = GACGAACTGGGGACTGGGGACGTGCTA; result = -0.528 z-score
Oligonucleotide = TCACTGGTCACTCTCTGACTGTGCTAG; result = -0.695 z-score
Oligonucleotide = GACGAAATCAGTCTCGAGACGTGCTAG; result = 0.549 z-score
Oligonucleotide = GACGGACTGGCCACTGGGGACGTGCTA; result = -0.892 z-score
Oligonucleotide = GACGATCTCGGGTATCGAGACGTGCTA; result = 0.0232 z-score
Oligonucleotide = AACGATCTCAGTATCGAGACGTGCTAG; result = 0.345 z-score
Oligonucleotide = TCACTTTTCACTTTACAACTGTGCTAG; result = 2.79 z-score
Oligonucleotide = GACGGTTTCGACTTTCGGGAAGTGCTA; result = 11.3 z-score
Oligonucleotide = TTAGAACTGAGTATCGCTTAGTGCTAG; result = -0.114 z-score
Oligonucleotide = GACGAGATCAGTATCGAGACGTGCTAG; result = -0.348 z-score

Block 4
Target: Fragile X messenger ribonucleoprotein 1, C-terminal low-complexity region (Fmr1, Mus musculus, UniProt P35922)
Method: RNA Bind-n-Seq
Molecule type: RNA
Matrix: in vitro
Tested at: 200 nM
Setting: whole 134-nt RNA, ends assumed
Added: 150 mM LiCl
Reference: input library
Direction: higher = stronger binding
Measurement: log2 enrichment
Each molecule: 7-deaza-guanosine replaces G
Oligonucleotide = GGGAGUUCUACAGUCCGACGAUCCAAGUCCUGUGCUACACAUCGUAUGUACCGAAUCGGGUGGGUUUUUUUGGGAGGGAAAGUAUUAUGUUACGCCGUUCGGAUCUGCACUUCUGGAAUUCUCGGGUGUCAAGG; result = 0.149
Oligonucleotide = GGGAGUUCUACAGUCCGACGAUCAAGUCCUGUGCUACACAUCGUAUGUACCGAAUCGGGUUUUUGGGUUUUUGGGAGGGAAAGUAUUAUGUUACGCCGUUCGGAUCUGCACUUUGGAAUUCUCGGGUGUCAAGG; result = -0.663
Oligonucleotide = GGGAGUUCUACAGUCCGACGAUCCAAGUCCUGUGCUACACAUCGUAUGUACCGAAUCAAACCCAAACCCAAACCCAAAAAAGUAUUAUGUUACGCCGUUCGGAUCUGCACUUCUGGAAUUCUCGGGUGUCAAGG; result = 0.303
Oligonucleotide = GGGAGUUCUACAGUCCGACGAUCCUCAAGUCCUGUGCUACACAUCGUAUGUACCGAAUCGGGCGGGGCGGGGCGGGGAAAGUAUUAUGUUACGCCGUUCGGAUCUGCACUUCCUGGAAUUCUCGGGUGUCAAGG; result = -0.183
Oligonucleotide = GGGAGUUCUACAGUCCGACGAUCGCAGGAAGUAAAAACAAAUGGAAAUGCUUCGGAUAGUGGCACGGGUGGGGGUUGCUAAGGAAAGGGUGGGAUGGGAGUGGGUAAAGAGUUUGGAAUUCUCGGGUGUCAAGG; result = 1.19
Oligonucleotide = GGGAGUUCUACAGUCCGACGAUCACCAUGCAGGUGGGCAUCUUUGGGAAGUGGGGCAAGGGGGAGAUAGGGAGGGGGGUAACACUUUGGGAACAGGUGGUCCCAGGUCGUUUCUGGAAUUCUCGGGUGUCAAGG; result = 1.29
Oligonucleotide = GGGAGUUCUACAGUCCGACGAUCCCUCAAGUCCUGUGCUACACAUCGUAUGUACCGAAUCGGCCGGCCGGGGCCGGAAAGUAUUAUGUUACGCCGUUCGGAUCUGCACUUCCAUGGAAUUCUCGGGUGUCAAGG; result = 1.42
Oligonucleotide = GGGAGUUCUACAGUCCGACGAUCUCCUGUGCUACACAUCGUAUGUACCGAAUCGGUUUUUUGGGGUUUUUUGGGUUUUUUGGGAAAGUAUUAUGUUACGCCGUUCGGAUCUGCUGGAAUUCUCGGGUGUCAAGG; result = -0.226

Repeated from above (block 2):
Oligonucleotide = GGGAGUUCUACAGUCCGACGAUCUUUGUAUAGCUUCAAGAACUUUAUACCUGUACAGCUCUAACAUGACACUGCUCCACUCAGUAUUCAUCCUGUUGACGCACACAGGUGAGCACUUUCCUAACUACUGCAGAUGGAAUUCUCGGGUGCCAA; result = 0.688
Oligonucleotide = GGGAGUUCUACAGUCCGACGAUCGAUCAUUUAAGUAAUAGUUAGUAAUCACGUAAAUACACCCGGACAGAAAUAUAAUGUCUGGAUCUACUUCAUUCUUACAUCAACAUUCACUUUAAAAUCUAUCGAAGCUCUGGAAUUCUCGGGUGCCAA; result = 0.289
Oligonucleotide = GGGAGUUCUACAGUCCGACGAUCGUGCGCUGGGCAGGAGGAAGGCAUGUGCUUCCUCCCCAGCCACCACCCCUCCCACAGCACCCAGCCUCACUACCCCAGCAUGGGGUACCCAGCUGGAUACUCCCAAAAUGUGGAAUUCUCGGGUGCCAA; result = 9.92
